{"data": "Measurements gathered from unrelated publications", "note": "Numbered parts are unrelated; each lists some results of a single study. Several values in a cell are separate wells, animals, samples, runs or records.", "chain of UniProt P23443 (whole entry, looked up)": "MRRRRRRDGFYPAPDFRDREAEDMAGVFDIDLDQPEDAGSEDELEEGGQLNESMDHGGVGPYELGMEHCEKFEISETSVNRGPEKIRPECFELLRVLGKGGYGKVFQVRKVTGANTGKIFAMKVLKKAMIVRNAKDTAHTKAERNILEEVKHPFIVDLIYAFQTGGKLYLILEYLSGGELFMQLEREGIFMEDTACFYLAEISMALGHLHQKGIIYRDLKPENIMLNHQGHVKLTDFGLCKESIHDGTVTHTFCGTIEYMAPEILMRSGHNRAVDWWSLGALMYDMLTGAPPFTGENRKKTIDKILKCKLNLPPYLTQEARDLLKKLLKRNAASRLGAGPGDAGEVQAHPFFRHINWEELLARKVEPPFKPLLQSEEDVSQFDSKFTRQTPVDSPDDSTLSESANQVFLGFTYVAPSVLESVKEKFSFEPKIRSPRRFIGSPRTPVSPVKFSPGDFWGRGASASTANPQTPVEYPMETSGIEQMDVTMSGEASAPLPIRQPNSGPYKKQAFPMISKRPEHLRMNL", "chain of UniProt Q15418 (whole entry, looked up)": "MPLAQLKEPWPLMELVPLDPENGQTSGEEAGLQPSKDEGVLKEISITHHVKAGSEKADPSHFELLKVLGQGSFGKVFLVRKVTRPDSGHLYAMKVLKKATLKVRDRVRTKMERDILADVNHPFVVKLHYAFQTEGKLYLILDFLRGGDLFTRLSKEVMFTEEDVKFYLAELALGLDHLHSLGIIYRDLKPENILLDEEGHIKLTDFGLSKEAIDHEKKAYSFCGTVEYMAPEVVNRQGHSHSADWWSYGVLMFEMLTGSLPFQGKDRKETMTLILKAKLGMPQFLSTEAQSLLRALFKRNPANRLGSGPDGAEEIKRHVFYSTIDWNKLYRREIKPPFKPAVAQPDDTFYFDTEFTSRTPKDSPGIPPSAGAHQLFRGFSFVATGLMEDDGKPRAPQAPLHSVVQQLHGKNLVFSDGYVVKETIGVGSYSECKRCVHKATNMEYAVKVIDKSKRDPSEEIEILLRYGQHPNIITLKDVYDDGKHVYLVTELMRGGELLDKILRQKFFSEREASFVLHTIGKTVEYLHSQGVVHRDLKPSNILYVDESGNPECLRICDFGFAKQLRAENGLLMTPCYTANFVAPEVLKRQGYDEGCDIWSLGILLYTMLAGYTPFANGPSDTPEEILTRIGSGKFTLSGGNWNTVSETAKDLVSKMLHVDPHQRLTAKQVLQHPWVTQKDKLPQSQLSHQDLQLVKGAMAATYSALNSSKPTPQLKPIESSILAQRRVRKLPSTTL", "chain of UniProt Q02156 (whole entry, looked up)": "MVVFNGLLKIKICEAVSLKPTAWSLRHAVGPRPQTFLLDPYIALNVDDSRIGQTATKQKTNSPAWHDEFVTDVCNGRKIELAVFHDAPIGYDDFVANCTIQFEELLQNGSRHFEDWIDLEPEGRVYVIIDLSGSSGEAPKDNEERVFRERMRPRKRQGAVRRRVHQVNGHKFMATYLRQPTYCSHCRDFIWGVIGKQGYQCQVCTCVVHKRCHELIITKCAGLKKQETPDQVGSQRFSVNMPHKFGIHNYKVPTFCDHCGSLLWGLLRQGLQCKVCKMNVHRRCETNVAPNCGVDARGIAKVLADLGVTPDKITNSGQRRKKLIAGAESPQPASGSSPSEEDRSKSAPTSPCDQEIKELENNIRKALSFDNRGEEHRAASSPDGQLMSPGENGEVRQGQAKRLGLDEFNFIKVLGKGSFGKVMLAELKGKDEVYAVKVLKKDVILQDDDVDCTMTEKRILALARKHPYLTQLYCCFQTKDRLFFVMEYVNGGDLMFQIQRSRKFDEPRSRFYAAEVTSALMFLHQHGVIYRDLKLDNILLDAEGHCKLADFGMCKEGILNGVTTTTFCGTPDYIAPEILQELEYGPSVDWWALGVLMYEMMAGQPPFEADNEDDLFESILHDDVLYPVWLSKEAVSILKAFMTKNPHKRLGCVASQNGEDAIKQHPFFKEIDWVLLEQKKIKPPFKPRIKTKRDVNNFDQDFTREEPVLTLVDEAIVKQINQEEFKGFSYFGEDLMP", "chain of UniProt Q13177 (whole entry, looked up)": "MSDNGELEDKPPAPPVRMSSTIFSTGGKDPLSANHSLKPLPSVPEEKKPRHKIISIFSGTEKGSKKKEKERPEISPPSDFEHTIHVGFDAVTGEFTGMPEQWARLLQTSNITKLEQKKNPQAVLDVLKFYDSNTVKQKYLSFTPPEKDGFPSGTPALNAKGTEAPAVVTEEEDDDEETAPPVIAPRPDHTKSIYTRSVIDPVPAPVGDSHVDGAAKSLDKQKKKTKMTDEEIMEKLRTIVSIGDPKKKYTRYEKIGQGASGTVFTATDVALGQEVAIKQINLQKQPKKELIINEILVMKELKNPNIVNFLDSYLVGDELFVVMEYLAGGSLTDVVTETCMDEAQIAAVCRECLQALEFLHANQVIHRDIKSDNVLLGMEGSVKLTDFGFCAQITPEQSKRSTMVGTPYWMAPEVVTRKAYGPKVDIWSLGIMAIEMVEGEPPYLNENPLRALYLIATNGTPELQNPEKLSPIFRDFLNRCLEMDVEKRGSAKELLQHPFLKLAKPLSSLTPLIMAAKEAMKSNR", "chain of UniProt P07333 (whole entry, looked up)": "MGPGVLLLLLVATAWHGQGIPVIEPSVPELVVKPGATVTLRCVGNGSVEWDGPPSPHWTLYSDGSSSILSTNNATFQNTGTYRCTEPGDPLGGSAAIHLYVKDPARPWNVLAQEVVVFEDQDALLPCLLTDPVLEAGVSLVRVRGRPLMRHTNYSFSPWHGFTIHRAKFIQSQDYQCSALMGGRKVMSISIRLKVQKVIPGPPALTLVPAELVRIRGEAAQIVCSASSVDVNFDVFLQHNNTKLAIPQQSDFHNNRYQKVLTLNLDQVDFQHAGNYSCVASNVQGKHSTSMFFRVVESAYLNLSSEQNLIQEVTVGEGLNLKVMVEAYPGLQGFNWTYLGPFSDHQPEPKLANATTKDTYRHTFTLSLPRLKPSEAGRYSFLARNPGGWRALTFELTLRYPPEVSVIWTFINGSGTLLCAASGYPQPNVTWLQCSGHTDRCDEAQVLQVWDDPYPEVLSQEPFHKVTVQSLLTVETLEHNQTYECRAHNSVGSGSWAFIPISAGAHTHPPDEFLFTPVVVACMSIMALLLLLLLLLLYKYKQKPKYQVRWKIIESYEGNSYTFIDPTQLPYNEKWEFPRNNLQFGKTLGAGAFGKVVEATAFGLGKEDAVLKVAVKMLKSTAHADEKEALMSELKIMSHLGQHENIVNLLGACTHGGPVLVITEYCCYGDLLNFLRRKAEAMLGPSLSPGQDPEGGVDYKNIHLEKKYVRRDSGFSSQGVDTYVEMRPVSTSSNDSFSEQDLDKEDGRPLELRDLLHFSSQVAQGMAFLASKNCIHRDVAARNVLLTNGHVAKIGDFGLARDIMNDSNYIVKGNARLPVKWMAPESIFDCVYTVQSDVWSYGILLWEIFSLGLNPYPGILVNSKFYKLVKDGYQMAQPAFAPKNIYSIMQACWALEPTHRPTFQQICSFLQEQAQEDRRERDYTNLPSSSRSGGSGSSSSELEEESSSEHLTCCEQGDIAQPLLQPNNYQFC", "chain of UniProt O00141 (whole entry, looked up)": "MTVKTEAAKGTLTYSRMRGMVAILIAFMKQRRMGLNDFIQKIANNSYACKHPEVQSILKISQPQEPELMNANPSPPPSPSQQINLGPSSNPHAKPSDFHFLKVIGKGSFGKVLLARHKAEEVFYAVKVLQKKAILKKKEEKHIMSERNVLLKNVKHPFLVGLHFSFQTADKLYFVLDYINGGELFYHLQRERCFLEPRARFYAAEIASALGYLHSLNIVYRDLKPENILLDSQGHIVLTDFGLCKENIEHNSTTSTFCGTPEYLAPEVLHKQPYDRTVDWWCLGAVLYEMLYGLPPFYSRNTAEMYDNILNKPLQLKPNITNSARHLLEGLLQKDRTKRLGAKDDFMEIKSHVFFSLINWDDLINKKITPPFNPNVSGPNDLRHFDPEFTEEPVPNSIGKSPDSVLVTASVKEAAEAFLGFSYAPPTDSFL"}
{"data": "Block 1", "host": "human", "matrix": "microsomes or S9", "concentration": "2 µM", "time": "0.5 h"}
{"SMILES": "O=C1N=C(O)N=C(O)/C1=C\\NNC(=O)c1ccccc1O", "remaining compound [%]": 88.8}
{"SMILES": "O=c1ccc2ccc3occc3c2o1", "remaining compound [%]": 37}
{"SMILES": "COC(=O)[C@@]12Cc3ccccc3[C@@H](C1)N(C(C)(C)C)O2", "remaining compound [%]": 0.00757}
{"data": "Block 2", "SMILES": "COc1ccc2c(c[n+](C)c3c4cc5c(cc4ccc23)OCO5)c1OC", "read-out": "enzyme activity", "mode": "inhibitor", "concentration": "0.5 µM", "baseline": "control"}
{"target": "PRKCG (Homo sapiens, UniProt P05129)", "remaining activity [%]": 87.2}
{"target": "CSK (Homo sapiens, UniProt P41240)", "remaining activity [%]": 106}
{"target": "NUAK1 (Homo sapiens, UniProt O60285)", "remaining activity [%]": 96.6}
{"target": "SRPK3 (Homo sapiens, UniProt Q9UPE1)", "remaining activity [%]": 96.1}
{"target": "SGK1 (Homo sapiens, UniProt O00141)", "remaining activity [%]": 118}
{"target": "PIM2 (Homo sapiens, UniProt Q9P1W9)", "remaining activity [%]": 105}
{"target": "GSK3A (Homo sapiens, UniProt P49840)", "remaining activity [%]": 105}
{"target": "PRKCE (Homo sapiens, UniProt Q02156)", "remaining activity [%]": 93.6}
{"target": "FLT3 (Homo sapiens, UniProt P36888)", "remaining activity [%]": 76.9}
{"target": "Aurora kinase C (AURKC, Homo sapiens, UniProt Q9UQB9)", "remaining activity [%]": 93.5}
{"target": "EPHA7 (Homo sapiens, UniProt Q15375)", "remaining activity [%]": 95.4}
{"target": "GRK6 (Homo sapiens, UniProt P43250)", "remaining activity [%]": 104}
{"target": "RPS6KA1 (Homo sapiens, UniProt Q15418)", "remaining activity [%]": 104}
{"target": "RPS6KB1 (Homo sapiens, UniProt P23443)", "remaining activity [%]": 99.8}
{"target": "PAK2 (Homo sapiens, UniProt Q13177)", "remaining activity [%]": 101}
{"target": "CSF1R (Homo sapiens, UniProt P07333)", "remaining activity [%]": 99}
{"target": "BMX (Homo sapiens, UniProt P51813)", "remaining activity [%]": 104}
{"target": "MYLK (Homo sapiens, UniProt Q15746)", "remaining activity [%]": 100}
{"target": "EPHB2 (Homo sapiens, UniProt P29323)", "remaining activity [%]": 97.1}
{"target": "FGFR4 (Homo sapiens, UniProt P22455)", "remaining activity [%]": 90.1}
{"target": "GRK2 (Homo sapiens, UniProt P25098)", "remaining activity [%]": 96.6}
{"data": "Block 3", "target": "Eukaryotic initiation factor 4A-III (Homo sapiens, UniProt P38919)", "read-out": "RNA clamping", "method": "fluorescence polarization", "concentration": "concentration not given", "notes": "mean of two replicates", "with": "FAM-labelled poly r(AG)8 RNA", "chain of UniProt P38919 (whole entry, looked up)": "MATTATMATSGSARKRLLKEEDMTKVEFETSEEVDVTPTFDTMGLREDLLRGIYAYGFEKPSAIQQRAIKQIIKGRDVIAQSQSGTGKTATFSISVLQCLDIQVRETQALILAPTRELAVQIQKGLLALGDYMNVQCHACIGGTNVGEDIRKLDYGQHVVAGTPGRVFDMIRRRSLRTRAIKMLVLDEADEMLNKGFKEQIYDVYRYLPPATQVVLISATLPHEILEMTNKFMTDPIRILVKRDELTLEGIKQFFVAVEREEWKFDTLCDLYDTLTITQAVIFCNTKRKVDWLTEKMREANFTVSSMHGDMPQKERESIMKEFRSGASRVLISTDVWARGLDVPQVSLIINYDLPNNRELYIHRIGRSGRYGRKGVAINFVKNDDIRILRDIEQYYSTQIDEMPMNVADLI"}
{"SMILES": "COCc1nc2c(c(=O)[nH]1)[C@@H](c1ccccc1)[C@]1(c3ccc(OC)cc3)Oc3cc(OC)cc(OC)c3[C@]21O", "fluorescence polarization change": "32.6 mP"}
{"SMILES": "COc1ccc([C@@]23Oc4cc(OC)cc(OC)c4[C@@]24NC(C)=NC4=C(C=O)[C@H]3c2ccccc2)cc1", "fluorescence polarization change": "23 mP"}
{"SMILES": "COc1ccc([C@]23Oc4cc(OC)cc(OC)c4[C@@]2(O)[C@@H](O)C[C@@H]3c2ccccc2)cc1", "fluorescence polarization change": "3 mP"}
{"SMILES": "COC(=O)[C@H]1[C@@H](O)[C@@]2(O)c3c(OC)cc(OC)cc3O[C@@]2(c2ccc(Br)cc2)[C@@H]1c1ccccc1", "fluorescence polarization change": "34.3 mP"}
{"SMILES": "COc1ccc([C@@]23Oc4cc(OC)cc(OC)c4[C@@]24NC(C)=N[C@@]4(O)[C@H](C(=O)N(C)OC)[C@H]3c2ccccc2)cc1", "fluorescence polarization change": "88.4 mP"}
{"SMILES": "COc1ccc([C@@]23Oc4cc(OC)cc(OC)c4[C@]2(O)c2nc(-c4cccnc4)[nH]c(=O)c2[C@H]3c2ccccc2)cc1", "fluorescence polarization change": "31.2 mP"}
{"SMILES": "COC(=O)[C@@H]1[C@@H](c2ccccc2)[C@]2(c3ccc(OC)cc3)Oc3cc(OC)cc(OC)c3[C@@]23OC(C)=N[C@@]13O", "fluorescence polarization change": "29 mP"}
{"SMILES": "COc1ccc([C@@]23Oc4cc(OC)cc(OC)c4[C@]2(O)c2nc(-c4ccc(Cl)nc4)[nH]c(=O)c2[C@H]3c2ccccc2)cc1", "fluorescence polarization change": "21.9 mP"}
{"SMILES": "[2H]C([2H])([2H])C1=N[C@@]2(O)[C@H](C(=O)OC)[C@@H](c3ccccc3)[C@]3(c4ccc(OC)cc4)Oc4cc(OC)cc(OC)c4[C@]23N1", "fluorescence polarization change": "36.1 mP"}
{"data": "Block 4", "SMILES": "CNC(=O)c1ccc(-c2cnn3ccc(C(=O)N(C)c4ccc(Cl)c(C(=O)OC)c4)cc23)cc1", "organism": "Cryptosporidium parvum", "host": "neonatal calves", "dose": "dose not given", "direction": "direction not given"}
{"conditions": "day 13 post-treatment", "fecal consistency score": 1}
{"conditions": "day 4, second reading", "fecal consistency score": "2 and 1"}
{"conditions": "day 11 post-treatment", "fecal consistency score": "1 and 2"}
{"conditions": "day 4 post-treatment", "fecal consistency score": "1 and 2"}
{"conditions": "day 1 post-treatment", "fecal consistency score": "1 and 3 and 2"}
{"conditions": "day 12 post-treatment", "fecal consistency score": 1}
{"conditions": "day 10 post-treatment", "fecal consistency score": "1 and 2"}
{"data": "Further values, each from its own experiment", "organism": "Plasmodium berghei", "cell line": "Huh-7", "strain": "GFP-expressing", "concentration": "10 µM", "time": "24 h", "notes": "liver stage"}
{"SMILES": "CN1CCC[C@H]1c1cccnc1", "inhibition": "7.76%"}
{"SMILES": "CO[C@H]1C[C@H](O[C@@H]2/C(C)=C/C[C@@H]3C[C@@H](C[C@]4(CC[C@H](C)[C@@H](C5CCCCC5)O4)O3)OC(=O)[C@@H]3C=C(C)/C(=N/O)[C@H]4OC/C(=C\\C=C\\[C@@H]2C)[C@]43O)O[C@@H](C)[C@@H]1O", "inhibition": "57.4%"}
{"note": "For quick reference, copied from above (block 4):"}
{"conditions": "day 4, second reading", "fecal consistency score": "2 and 1"}
{"conditions": "day 11 post-treatment", "fecal consistency score": "1 and 2"}
